Measured values pooled from the literature.
Every numbered part comes from another study and shows a few of its results, in no order.

Set 1
Target: PABPC1L2, full length, GST fusion (mouse, UniProt A0ABA7IW68)
Technique: RNAcompete
Molecule type: RNA
Sample: in vitro
Concentration: 20 nM
Notes: 7-mer, probes averaged, single round
Baseline: mean of 7-mers
Direction: higher = stronger binding
Construct (chain): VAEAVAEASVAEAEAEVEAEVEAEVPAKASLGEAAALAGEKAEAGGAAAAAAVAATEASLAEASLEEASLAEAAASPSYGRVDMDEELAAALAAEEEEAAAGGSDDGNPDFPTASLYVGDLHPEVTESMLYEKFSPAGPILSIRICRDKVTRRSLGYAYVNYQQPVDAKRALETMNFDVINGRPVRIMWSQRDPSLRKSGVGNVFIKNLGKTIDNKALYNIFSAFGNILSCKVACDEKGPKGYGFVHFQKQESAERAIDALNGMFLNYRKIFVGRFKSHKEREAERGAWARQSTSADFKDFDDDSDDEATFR
Sequence	7-mer Z-score
ACCCGAG	-0.0971
UGCAUAU	-0.17
AGCGCCG	-0.231
AAAAUGG	5.55
CAGGGGU	0.122

Set 2
Target: Hepatocyte nuclear factor 3-alpha (Foxa1, Mus musculus, UniProt P35582, residues 1-468, full length assumed)
Technique: EMSA with sequencing
Molecule type: double-stranded DNA, one strand shown
Sample: in vitro
Concentration: 10 and 20 nM
Notes: whole designed probe, mean of two concentrations, ends assumed
Baseline: negative control set to 0
Direction: higher = stronger binding
Target sequence (chain): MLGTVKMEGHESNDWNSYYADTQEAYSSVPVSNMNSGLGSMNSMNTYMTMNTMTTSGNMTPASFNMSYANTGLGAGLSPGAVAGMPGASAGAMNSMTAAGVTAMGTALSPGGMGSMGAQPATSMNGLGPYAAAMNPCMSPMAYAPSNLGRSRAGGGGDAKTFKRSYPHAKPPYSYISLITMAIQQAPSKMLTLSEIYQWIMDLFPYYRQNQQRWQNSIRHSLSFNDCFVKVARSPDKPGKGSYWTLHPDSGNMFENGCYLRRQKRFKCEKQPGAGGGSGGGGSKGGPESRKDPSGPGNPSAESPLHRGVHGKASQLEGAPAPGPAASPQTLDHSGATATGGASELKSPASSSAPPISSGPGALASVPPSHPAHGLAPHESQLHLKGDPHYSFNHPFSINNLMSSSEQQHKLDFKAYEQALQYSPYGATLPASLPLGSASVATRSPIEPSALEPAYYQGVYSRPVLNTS
Sequence	normalised bound fraction
GTGAGCGGTGCCCATTGATGGGGAACATTTCCCCCAGCCAGTTTTAAATGTGTTATCTGAGCAAGCAAAACCTAAGAATTTCGGTCTTTAAGGACCAGAAATCTGGGACCCAGGCCAAAGTAAACATAGTGGCAATGTATTGCTAAACCCAAATGCAACATTGCTAACCAGTTGCTCAGATGTTCTCACAAAGTAATATTTTCTAACAGTTAGTGATTCTTTCACTGGGATCGTGGGGAC	0.385 ratio
GTGAGCGGTGCCCATTGATGGGGAACTGTGAGCTTGTTTGTTCACTGAAAGCACTCATCATAAGCCTCATCAATATAAAAACTCTTGGTAGGACCAAGGGCAAACTAAGCTGAAGATCATGTTTGCATAGTTGTCCTGCAACTTACCAACGTAGTTCAGAATAGAGTATGTCAAACCACCTTATAAAAACTGGGGCATCTGAAGGCATAAAAGTGTTCATTTCACTGGGATCGTGGGGAC	0.335 ratio
GTGAGCGGTGCCCATTGATGGGGAACGTTTCGAGATATGGCATAAACTTTCAAGCTGAGTAAATGGTAGAAAGGTTAGCCAAGTCAACTTGGGGGTCGAATTTTAAGGAAATCTCAAAGTAAACAAGCTAATCTATAGGAAGTGAGAGATAATTTTAGTATTGCTGAACTTTCACATTCTTGTAAATTCCACTGGAGCGCATGGCTTTGCAGGAGCAGTTTTCACTGGGATCGTGGGGAC	0.231 ratio

Set 3
Target: Sal-like protein 4, full length isoform A (SALL4, Homo sapiens, UniProt Q9UJQ4, residues 1-1053)
Chain of UniProt Q9UJQ4 (whole entry, looked up): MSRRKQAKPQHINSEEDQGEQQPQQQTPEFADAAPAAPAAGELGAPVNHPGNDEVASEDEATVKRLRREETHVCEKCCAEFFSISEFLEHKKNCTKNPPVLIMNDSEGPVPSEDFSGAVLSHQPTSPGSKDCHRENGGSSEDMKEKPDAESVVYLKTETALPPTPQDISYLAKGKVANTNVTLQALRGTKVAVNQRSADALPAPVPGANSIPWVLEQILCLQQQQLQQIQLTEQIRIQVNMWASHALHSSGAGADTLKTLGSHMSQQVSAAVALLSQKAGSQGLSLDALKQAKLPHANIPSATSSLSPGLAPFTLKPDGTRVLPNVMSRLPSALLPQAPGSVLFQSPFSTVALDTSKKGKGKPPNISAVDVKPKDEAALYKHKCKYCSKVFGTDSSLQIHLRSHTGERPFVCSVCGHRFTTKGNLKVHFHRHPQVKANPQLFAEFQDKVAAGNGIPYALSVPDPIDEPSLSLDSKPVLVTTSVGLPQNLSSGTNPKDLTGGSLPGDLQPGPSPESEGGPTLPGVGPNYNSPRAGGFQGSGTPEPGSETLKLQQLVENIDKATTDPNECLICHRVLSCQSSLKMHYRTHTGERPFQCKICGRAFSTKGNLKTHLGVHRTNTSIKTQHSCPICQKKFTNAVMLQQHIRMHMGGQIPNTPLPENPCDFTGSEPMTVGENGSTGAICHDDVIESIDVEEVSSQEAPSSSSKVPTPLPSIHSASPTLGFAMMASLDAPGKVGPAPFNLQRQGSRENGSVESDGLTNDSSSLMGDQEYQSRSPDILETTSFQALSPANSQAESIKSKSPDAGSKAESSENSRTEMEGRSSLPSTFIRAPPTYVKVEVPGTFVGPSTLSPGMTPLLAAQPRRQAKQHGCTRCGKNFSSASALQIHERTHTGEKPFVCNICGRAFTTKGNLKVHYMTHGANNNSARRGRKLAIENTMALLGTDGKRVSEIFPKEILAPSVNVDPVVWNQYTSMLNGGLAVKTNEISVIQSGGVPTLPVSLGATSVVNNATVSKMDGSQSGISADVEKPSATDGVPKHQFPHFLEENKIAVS
Technique: universal PBM
Molecule type: double-stranded DNA, one strand shown
Sample: in vitro
Concentration: 600 nM
Notes: 8-mer, flanks averaged, mean of replicates
Direction: higher = stronger binding
Sequence	E-score
AAGATTCT	0.0847
GTGTTGAA	0.023
CTAGTTAA	0.171
GTACTTTA	0.197
ATTGGGAA	0.117
GGCAGGGA	-0.0931

Mixed results
Substance	target	assay	system	setting	how to read	quantity	result
PhoQ, residues 284 288 289 292 302 303 MLMVEA	PhoP, residues 12 14 15 18 19 LHATL (Escherichia coli, UniProt P23836)	Sort-seq, item: YFP reporter	E. coli	PhoQ-PhoP variant library, added: 10 µM Mg2+	baseline: high Mg2+ state, higher = stronger signaling	fold induction	4.29

Repeated from above (set 3):
Sequence	E-score
GGCAGGGA	-0.0931
GTACTTTA	0.197
CTAGTTAA	0.171
